Measured values from different studies.
Parts stem from different laboratories: compare values within a part only. Changes are numbered by the printed parent chain.

Series 1
Target: Interferon regulatory factor 3, full length, phosphomimetic (IRF3, Homo sapiens, UniProt Q14653, residues 1-427, S386D/S396D/S398D/S402D/T404D/S405D)
Sequence of UniProt Q14653 (whole entry, unmodified, looked up): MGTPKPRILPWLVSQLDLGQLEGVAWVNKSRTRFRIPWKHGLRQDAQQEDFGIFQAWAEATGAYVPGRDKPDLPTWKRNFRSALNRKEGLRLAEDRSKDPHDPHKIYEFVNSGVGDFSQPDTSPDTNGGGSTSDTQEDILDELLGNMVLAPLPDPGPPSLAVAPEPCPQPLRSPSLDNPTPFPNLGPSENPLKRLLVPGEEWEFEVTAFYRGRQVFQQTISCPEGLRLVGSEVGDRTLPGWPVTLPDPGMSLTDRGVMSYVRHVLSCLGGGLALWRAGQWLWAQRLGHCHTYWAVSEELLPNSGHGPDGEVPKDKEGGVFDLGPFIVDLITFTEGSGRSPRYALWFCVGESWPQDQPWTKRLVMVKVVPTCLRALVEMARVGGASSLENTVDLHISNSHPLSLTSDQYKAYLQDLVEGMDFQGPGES
Method: protein-binding microarray
Form: double-stranded DNA, one strand shown
Medium: in vitro
Tested at: 2540 nM top
Notes: 60-bp whole probe
Together with: salmon DNA 0.4 mg/ml
Reference: random background probes
Direction: higher = stronger binding
All sequences stand within: GCCTAGCAC … GTCTTGATTCGCTTGACGCTGCTG
Strand	fitted relative affinity [z-score]
TTAGGACTGGGGACTGGGTCAGTGCTA	-1.04
GGCGGTTTCCTTCTCCTGACGTGCTAG	10.4
GACGATCTCATACTGGAGACGTGCTAG	0.565
TTGGATATCGGGTATCGATTAGTGCTA	0.00637
TTAGGTTCCGGGTATCGGTTAGTGCTA	1.97
GACGGACTGGGACTGAGGACGTGCTAG	-0.916
TTGGTTTTCCTTATTGCTTCGTGCTAG	4.19
GACAGTATCCTTATCCTGACGTGCTAG	5.72
TTAGATTCCAGTTTTGATTAGTGCTAG	2.94
GACGAACGGGGGTATCGAGACGTGCTA	-0.106
TTAGATTCCAGTCTCGATTAGTGCTAG	3.15
CAGATTTGGCATATCTATTTGTGCTAG	0.618
GACGATGTCAGTTCCGAGACGTGCTAG	0.621
TGGGGGGATCAGGGAAACAGGTGCTAG	0.595
CACGGTATCGACTTTCGGGACGTGCTA	1.12
GAGGATTTCAGACTGGAGACGTGCTAG	0.007
GATGGCAGTGGAAATTTTACGTGCTAG	-0.84
GACTAACTGGGGTATCGAGACGTGCTA	-0.315
TTAGATTTCGACTTTCGGTTAGTGCTA	2.41
TTAGATTTCAGTTTCGATCAGTGCTAG	4.66
ATTTTGAGGTGGAGAGATAAGTGCTAG	0.136
GACGTTTTCGGGTTTCGAGACGTGCTA	3.19
TTAGGTATCCTGATCCTTTAGTGCTAG	1.85
TTAGGACTGGGTCTGGGTTAGTGCTAG	-0.767

Series 2
Target: UBE2V1 UBC core domain (UniProt Q13404)
Method: yeast two-hybrid
Medium: yeast
Notes: mostly zero background
Reference: not given
Direction: higher = stronger interaction
B1: RNF149 RING domain (UniProt Q8NC42); chain EKGIDVDAENCAVCIENFKVKDIIRILPCKHIFHRICIDPWLLDHRTCPMCKLDVIKALGYW
B2: TRIM10 RING domain (UniProt Q9UDY6); chain SVTSLADEVNCPICQGTLREPVTIDCGHNFCRACLTRYCEIPGPDLEESPTCPLCKEPFRPGSFRP
B3: RNF112 RING domain (UniProt Q9ULX5); chain QPMAPRELPTCSICLERLRDPISLDCGHDFCIRCFSTHRLPGCEPPCCPECRKICKQKRGLR
B4: UBE4A RING domain (UniProt Q14139); chain LQQQEEETYADACDEFLDPIMSTLMCDPVVLPSSRVTVDRSTIARHLLSDQTDPFNRSPLTMDQIRPNTELKEKIQRWLAERKQQKEQLE
B5: RNF14 RING domain (UniProt Q9UBS8); chain IKCFNSKLFLCSICFCEKLGSECMYFLECRHVYCKACLKDYFEIQIRDGQVQCLNCPEPKCPSVATPGQVK
B6: RNF175 RING domain (UniProt Q8N4F7); chain LPTRSLSDNICAVCGQKIIVELDEEGLIENTYQLSCNHVFHEFCIRGWCIVGKKQTCPYCKEKVDLKRMIS
B7: RNF43 RING domain (UniProt Q68DV7); chain SGSSCSSAPVCAICLEEFSEGQELRVISCLHEFHRNCVDPWLHQHRTCPLCMFNITEGDSFS
B8: ANKIB1 RING domain (UniProt Q9P2G1); chain LSPGDLDTSLCDICMCSISVFEDPVDMPCGHDFCRGCWESFLNLKIQEGEAHNIFCPAYDCFQLVPVDIIE
B9: NSMCE1 RING domain (UniProt Q8WV22); chain RETYPDAVKICNICHSLLIQGQSCETCGIRMHLPCVAKYFQSNAEPRCPHCNDYWPHEIPKV
B10: RNF32 RING domain (UniProt Q9H0A6); chain SLLQGDSVQPCPICKEEFELRPQVLLSCSHVFHKACLQAFEKFTNKKTCPLCRKNQYQTRVIH
B11: TRIM35 RING domain (UniProt Q9UPQ4); chain PSRSFKEELLCAVCYDPFRDAVTLRCGHNFCRGCVSRCWEVQVSPTCPVCKDRASPADLRT
B12: TRIM55 RING domain (UniProt Q9BYV6); chain TMDNLEKQLICPICLEMFTKPVVILPCQHNLCRKCASDIFQASNPYLPTRGGTTMASGGRFRCPSCRHEVVLDRHG
Target sequence (chain): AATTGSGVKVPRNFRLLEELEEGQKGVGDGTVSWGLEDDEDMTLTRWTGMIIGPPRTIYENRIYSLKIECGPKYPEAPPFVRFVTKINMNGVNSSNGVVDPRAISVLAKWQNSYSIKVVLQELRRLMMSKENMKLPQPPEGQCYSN
Molecule	lacZ reporter activity
B1 (RNF149 RING domain)	0
B2 (TRIM10 RING domain)	0
B3 (RNF112 RING domain)	0
B4 (UBE4A RING domain)	0
KRQCSDVDDICSICQAEFQKPILLICQHIFCEECMTLWFNREKTCPLCRTVISDHINKW (RNFT1 RING domain (UniProt Q5M7Z0))	0
B5 (RNF14 RING domain)	0
B6 (RNF175 RING domain)	0
LKQVSIRENCCSLCCDEVADTQLKPCGHSDLCMDCALQLETCPLCRKEIVSRIRQI (RSPRY1 RING domain (UniProt Q96DX4))	0
B7 (RNF43 RING domain)	0
FLKKLEQSFMCVCCQELVYQPVTTECFHNVCKDCLQRSFKAQVFSCPACRHDLGQNYIMI (UHRF2 RING domain (UniProt Q96PU4))	0
QLQDEEDDSLCRICMDAVIDCVLLECGHMVTCTKCGKRMSECPICRQYVVRAVHVF (RNF34 RING domain (UniProt Q969K3))	0
B8 (ANKIB1 RING domain)	0
B9 (NSMCE1 RING domain)	0
B10 (RNF32 RING domain)	0
B11 (TRIM35 RING domain)	0
B12 (TRIM55 RING domain)	0

Series 3
Target: Histone acetyltransferase KAT6A, both winged helices, GST fusion (KAT6A, Homo sapiens, UniProt Q92794, residues 1-181)
Method: protein binding microarray
Form: double-stranded DNA, one strand shown
Medium: in vitro
Tested at: not given
Notes: 8-mer, flanks averaged, mean of 2 arrays, mostly near background
Reference: not given
Direction: higher = stronger binding
Residues (chain): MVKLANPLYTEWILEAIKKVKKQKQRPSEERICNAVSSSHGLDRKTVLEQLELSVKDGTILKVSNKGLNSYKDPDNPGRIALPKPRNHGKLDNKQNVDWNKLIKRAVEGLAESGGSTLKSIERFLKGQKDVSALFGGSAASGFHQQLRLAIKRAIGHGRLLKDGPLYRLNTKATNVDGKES
Strand	E-score
ATCAGTCA	-0.0409
CACGTATA	0.0394
ACGTTACG	0.0821
TAAACGTA	-0.0153
GCACCACA	-0.0422
CTTCTTAC	-0.0234
ACCCGACT	0.000695
CATTCCTC	-0.198
ACGCTCTC	0.156
ATGCCCGG	0.251
AATCCTAG	-0.135
TTCTGCAA	0.0735
ATGTAGAA	-0.12
AGGTACAT	-0.178
CACTGCAG	-0.161
TCACATAA	-0.00125
ACATTAAG	-0.121
TGCGTTAA	0.17
CGAAACCA	0.108
AAGGATTG	-0.096
AATGACTG	-0.17
ACTTATGG	-0.084

Series 4
Target: ABI1, truncated, D143A, DHFR fusion (Arabidopsis thaliana)
Method: DHFR PCA, deep sequencing
Medium: yeast
Notes: methotrexate growth selection, single substitutions
Together with: (+)-ABA 200 µM
Reference: wild-type fitted maximum
Direction: higher = stronger binding
Parent: PYL1, truncated, DHFR fusion (Arabidopsis thaliana); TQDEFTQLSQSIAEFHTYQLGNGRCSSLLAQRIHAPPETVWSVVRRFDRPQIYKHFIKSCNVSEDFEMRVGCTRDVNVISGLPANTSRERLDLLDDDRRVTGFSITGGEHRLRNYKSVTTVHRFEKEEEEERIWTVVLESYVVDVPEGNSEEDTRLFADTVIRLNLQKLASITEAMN; partner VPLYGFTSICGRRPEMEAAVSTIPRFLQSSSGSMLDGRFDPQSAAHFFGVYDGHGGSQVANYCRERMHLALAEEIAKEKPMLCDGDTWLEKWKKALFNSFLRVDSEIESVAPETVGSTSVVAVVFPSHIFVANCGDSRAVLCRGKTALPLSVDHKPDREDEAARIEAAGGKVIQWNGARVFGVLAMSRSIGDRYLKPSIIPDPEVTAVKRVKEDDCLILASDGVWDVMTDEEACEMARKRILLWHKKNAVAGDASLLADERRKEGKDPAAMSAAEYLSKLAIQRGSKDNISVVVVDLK
Variant	relative binding score [%]
M176N	96.2
N85G	100
S26G	96
E139P	6.2
Y18A	90.6
L112Y	33.4
H110T	47.5
I33N	-18.7
I57F	18.5
K58Y	89.8
V142A	89.9
H122A	47.8
I133A	115
Y18T	86.6
E152G	93.2
N149H	44.4

Series 5
Target: CCNB2, cyclin fold, Cln2 fusion (human)
Method: yeast growth competition, sequencing
Medium: yeast
Notes: weak parent motif
Reference: not given
Direction: higher = stronger binding
Parent: CDKN1A docking peptide (human); SKACRRLFGPVDS; partner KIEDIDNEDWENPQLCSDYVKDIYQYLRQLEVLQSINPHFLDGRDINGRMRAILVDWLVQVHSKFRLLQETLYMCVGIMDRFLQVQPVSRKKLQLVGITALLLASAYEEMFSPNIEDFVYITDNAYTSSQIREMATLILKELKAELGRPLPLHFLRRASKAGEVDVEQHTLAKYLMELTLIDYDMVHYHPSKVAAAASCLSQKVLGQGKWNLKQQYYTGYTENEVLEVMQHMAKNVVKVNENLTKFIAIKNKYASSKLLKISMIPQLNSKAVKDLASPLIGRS
Variant	normalised enrichment score
SKACERLFGPVDS [R5E]	-0.239
STACRRLFGPVDS [K2T]	0.359
SKADRRLFGPVDS [C4D]	0.125
SKACRRLFFPVDS [G9F]	-0.0745
SKAHRRLFGPVDS [C4H]	0.627
SKACFRLFGPVDS [R5F]	-0.46
SKACVRLFGPVDS [R5V]	-0.227
SKACRNLFGPVDS [R6N]	-0.104
SKACRRLFRPVDS [G9R]	0.0826
SKACRRLFGPYDS [V11Y]	0.479
SKANRRLFGPVDS [C4N]	-0.0516
SKQCRRLFGPVDS [A3Q]	0.321
SKACRRLDGPVDS [F8D]	0.0334
SKACRRLFGPVES [D12E]	0.00916
SKACRMLFGPVDS [R6M]	0.322
SKACRRWFGPVDS [L7W]	0.281
SKACRRLFVPVDS [G9V]	0.453

Repeated from above (series 5):
Variant	normalised enrichment score
SKACFRLFGPVDS [R5F]	-0.46
SKACVRLFGPVDS [R5V]	-0.227
SKACRNLFGPVDS [R6N]	-0.104
SKACRRLFRPVDS [G9R]	0.0826
SKACRRLFGPYDS [V11Y]	0.479
SKANRRLFGPVDS [C4N]	-0.0516
SKQCRRLFGPVDS [A3Q]	0.321
SKACRRLDGPVDS [F8D]	0.0334
SKACRRLFGPVES [D12E]	0.00916
SKACRMLFGPVDS [R6M]	0.322
SKACRRWFGPVDS [L7W]	0.281
